Published values pooled from the literature.
Parts stem from different laboratories: compare values within a part only. “And” joins repeats or separate records; there may be more than shown.
Sequence of UniProt P46934 (whole entry, looked up): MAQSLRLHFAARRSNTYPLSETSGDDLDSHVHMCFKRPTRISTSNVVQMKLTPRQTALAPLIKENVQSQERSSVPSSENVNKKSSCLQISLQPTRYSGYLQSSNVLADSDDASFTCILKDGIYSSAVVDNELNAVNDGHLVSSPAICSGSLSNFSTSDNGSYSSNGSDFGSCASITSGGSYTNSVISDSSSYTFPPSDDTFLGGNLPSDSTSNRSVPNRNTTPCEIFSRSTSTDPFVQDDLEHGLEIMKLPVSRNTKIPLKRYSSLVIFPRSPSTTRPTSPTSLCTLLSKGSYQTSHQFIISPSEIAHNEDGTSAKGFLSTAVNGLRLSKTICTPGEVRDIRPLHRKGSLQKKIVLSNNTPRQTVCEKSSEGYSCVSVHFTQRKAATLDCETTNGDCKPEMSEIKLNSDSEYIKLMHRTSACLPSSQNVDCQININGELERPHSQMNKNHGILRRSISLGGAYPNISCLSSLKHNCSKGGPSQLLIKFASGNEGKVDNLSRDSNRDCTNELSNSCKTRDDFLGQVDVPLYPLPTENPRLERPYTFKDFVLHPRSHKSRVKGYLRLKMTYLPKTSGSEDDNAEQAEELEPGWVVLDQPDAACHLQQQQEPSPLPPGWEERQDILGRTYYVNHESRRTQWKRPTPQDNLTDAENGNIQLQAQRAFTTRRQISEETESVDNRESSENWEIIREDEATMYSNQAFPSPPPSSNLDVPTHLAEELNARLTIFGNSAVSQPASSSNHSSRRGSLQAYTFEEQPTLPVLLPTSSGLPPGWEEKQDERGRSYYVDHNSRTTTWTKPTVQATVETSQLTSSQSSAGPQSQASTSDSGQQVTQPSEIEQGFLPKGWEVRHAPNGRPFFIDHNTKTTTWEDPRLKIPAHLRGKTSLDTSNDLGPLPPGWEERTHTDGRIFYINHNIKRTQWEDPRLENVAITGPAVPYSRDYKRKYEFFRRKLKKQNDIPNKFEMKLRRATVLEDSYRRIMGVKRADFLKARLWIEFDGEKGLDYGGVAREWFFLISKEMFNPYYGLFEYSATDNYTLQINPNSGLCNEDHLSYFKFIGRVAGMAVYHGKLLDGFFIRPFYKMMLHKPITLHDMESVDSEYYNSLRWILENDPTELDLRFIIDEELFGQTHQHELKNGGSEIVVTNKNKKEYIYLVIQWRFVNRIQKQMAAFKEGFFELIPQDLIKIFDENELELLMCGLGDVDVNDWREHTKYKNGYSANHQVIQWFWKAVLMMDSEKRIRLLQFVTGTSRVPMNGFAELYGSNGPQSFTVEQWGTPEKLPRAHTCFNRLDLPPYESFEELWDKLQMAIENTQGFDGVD

Study 1
SMILES: Cc1ccc(O)c(C)c1-c1cnc2[nH]c(-c3cnc(N4CCC(CN5CCN(c6ccc(C(=O)NC7CCC(=O)NC7=O)c(F)c6)CC5)CC4)nc3)cc2c1C#N (racemic)
Target: Membrane-associated tyrosine- and threonine-specific cdc2-inhibitory kinase (PKMYT1, Homo sapiens, UniProt Q99640)
Observed: binding
Method: HTRF
Endpoint: inhibition
Residues (Q99640 1-499): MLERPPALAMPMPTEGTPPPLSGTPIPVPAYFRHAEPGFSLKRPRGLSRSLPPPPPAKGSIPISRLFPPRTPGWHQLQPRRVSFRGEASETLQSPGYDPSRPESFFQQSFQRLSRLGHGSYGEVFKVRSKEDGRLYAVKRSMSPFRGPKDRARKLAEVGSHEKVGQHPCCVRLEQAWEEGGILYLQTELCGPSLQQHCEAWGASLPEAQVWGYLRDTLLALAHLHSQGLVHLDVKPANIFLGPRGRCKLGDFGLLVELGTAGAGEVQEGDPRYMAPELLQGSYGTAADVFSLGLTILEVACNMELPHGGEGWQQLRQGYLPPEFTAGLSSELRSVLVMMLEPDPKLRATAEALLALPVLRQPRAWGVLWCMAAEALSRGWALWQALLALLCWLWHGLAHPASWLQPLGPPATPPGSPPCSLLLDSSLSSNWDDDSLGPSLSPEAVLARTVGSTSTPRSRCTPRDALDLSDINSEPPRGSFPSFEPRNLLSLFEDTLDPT
0.051 nM: -9.11% and -9.38%
333.33 nM: 98.2% and 102%
4.12 nM: 42.8% and 43.5%

Study 2
SMILES: COc1cc(C(=O)OCCCN2CCCN(CCCOC(=O)c3cc(OC)c(OC)c(OCc4ccc([N+](=O)[O-])cc4)c3)CC2)cc(OC)c1OC
Route: subcutaneous
Dose: 30 mg/kg
Endpoint: concentration
mouse CD-1 male, trigeminal ganglion; 24 h: 3.83 ng/mL
CD-1 mice, male, spinal cord; 1.5 h: 72.7 ng/mL
CD-1 mice, male, spinal cord; 0.1667 h: 29.8 ng/mL
CD-1 mice, male, spinal cord; 0.5 h: 97.1 ng/mL
male CD-1 mouse, brain; 24 h: 3.27 ng/mL
CD-1 mice, male, brain; 0.5 h: 95.5 ng/mL

Study 3
SMILES: Cn1cc(-c2cccc(CN3CCC4(CC3)COc3c4ccc4c3CN([C@H]3CCC(=O)NC3=O)C4=O)c2)cn1
Mode: degrader
Endpoint: protein remaining
CRBN/Zinc finger protein Helios: CRBN/Zinc finger protein Helios (Homo sapiens, UniProt Q96SW2+Q9UKS7)
Sequence of UniProt Q96SW2 (whole entry, looked up): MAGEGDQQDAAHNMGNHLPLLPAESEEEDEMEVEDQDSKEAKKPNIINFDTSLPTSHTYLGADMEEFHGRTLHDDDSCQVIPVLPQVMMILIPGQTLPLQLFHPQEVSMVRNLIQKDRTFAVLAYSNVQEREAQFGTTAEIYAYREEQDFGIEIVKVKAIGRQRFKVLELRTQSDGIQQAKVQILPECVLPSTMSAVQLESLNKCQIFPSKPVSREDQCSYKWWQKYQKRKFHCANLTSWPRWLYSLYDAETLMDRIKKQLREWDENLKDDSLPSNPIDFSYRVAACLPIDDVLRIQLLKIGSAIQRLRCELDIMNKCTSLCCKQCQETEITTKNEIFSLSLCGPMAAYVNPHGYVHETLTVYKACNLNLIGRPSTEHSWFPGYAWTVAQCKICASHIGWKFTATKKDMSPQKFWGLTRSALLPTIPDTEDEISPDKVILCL
Sequence of UniProt Q9UKS7 (whole entry, looked up): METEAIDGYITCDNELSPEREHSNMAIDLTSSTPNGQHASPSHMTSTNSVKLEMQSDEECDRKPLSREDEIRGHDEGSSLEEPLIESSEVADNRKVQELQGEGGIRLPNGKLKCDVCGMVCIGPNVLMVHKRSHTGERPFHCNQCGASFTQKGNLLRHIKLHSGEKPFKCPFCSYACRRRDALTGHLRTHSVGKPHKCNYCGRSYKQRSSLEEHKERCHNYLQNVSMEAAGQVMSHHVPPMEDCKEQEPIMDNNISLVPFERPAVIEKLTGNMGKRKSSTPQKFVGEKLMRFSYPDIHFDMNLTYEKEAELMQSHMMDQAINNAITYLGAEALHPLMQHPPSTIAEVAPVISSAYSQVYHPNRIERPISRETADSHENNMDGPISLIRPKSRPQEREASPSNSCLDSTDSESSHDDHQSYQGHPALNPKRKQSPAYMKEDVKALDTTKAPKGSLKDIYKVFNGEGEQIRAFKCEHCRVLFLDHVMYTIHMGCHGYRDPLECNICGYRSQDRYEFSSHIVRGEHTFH
Ikzf2/Crbn I391V: Ikzf2/Crbn (Mus musculus, UniProt P81183+Q8C7D2, I391V)
Sequence of UniProt Q8C7D2 (whole entry, unmodified, looked up): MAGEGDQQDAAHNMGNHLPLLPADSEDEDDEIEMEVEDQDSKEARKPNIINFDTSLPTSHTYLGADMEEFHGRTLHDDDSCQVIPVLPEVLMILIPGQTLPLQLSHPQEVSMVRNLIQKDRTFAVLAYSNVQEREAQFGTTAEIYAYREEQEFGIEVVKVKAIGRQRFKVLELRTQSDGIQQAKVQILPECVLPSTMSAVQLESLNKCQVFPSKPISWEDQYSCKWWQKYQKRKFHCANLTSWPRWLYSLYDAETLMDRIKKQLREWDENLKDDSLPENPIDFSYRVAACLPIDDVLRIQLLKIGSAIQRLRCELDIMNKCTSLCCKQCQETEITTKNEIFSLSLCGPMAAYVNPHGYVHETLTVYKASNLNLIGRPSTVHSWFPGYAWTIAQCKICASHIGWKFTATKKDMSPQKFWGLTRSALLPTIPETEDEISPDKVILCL
Sequence of UniProt P81183 (whole entry, unmodified, looked up): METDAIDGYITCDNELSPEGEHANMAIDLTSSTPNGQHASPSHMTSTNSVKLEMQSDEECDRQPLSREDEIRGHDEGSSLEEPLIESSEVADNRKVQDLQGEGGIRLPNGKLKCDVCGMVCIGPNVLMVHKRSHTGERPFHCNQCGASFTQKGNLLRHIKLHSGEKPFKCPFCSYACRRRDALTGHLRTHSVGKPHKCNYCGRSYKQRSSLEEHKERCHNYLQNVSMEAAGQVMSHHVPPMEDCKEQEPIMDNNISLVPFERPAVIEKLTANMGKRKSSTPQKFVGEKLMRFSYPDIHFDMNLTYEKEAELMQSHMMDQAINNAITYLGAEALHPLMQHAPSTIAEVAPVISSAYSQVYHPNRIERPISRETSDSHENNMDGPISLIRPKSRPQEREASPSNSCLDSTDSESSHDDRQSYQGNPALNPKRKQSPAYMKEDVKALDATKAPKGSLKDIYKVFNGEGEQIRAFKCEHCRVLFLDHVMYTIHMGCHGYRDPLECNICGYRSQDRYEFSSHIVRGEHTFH
CRBN/Zinc finger protein Helios; HiBiT; HEK293; 1.372 nM, 0.5 h: 84.4% and 91.5%
Ikzf2/Crbn I391V; Crbn I391V mouse, spleen; 30 mg/kg, 24 h: 40% and 45% and 23% and 26%
CRBN/Zinc finger protein Helios; HiBiT; HEK293; 1.372 nM, 1 h: 69.9% and 67.9%
CRBN/Zinc finger protein Helios; HiBiT; HEK293; 0.05081 nM, 0.5 h: 94.9% and 100%
CRBN/Zinc finger protein Helios; HiBiT; HEK293; 0.05081 nM, 3 h: 86.2% and 88.6%
CRBN/Zinc finger protein Helios; HiBiT; HEK293; 0.1524 nM, 1 h: 86.9% and 93.5%
CRBN/Zinc finger protein Helios; HiBiT; HEK293; 0.4572 nM, 6 h: 58.5% and 53.2%
Ikzf2/Crbn I391V; Crbn I391V mouse, spleen; 10 mg/kg, 6 h: 22% and 30% and 38%
Ikzf2/Crbn I391V; Crbn I391V mouse, thymus; 100 mg/kg, 6 h: 22% and 26% and 27% and 34%
CRBN/Zinc finger protein Helios; HiBiT; HEK293; 12.35 nM, 3 h: 23.3% and 23.7%
CRBN/Zinc finger protein Helios; HiBiT; HEK293; 37.04 nM, 1 h: 49.9% and 47.8%
Ikzf2/Crbn I391V; Crbn I391V mouse, spleen; 30 mg/kg, 12 h: 22% and 15% and 8% and 19%
CRBN/Zinc finger protein Helios; HiBiT; HEK293; 333.3 nM: 7.14% and 11.1%
Ikzf2/Crbn I391V; Crbn I391V mouse, thymus; 30 mg/kg, 12 h: 8%

Study 4
Compound: CCCCC[C@@H]1CC(=O)N[C@@H](C(C)C)C(=O)N[C@H](CCCNC(=N)N)C(=O)N[C@@H](C(C)C)C(=O)NCC(=O)N2CCC[C@H]2C(=O)N[C@@H](CC(C)C)C(=O)N[C@H](CCCNC(=N)N)C(=O)N[C@@H](CCC(=O)O)C(=O)N[C@H](Cc2ccc(O)cc2)C(=O)N[C@H](Cc2c[nH]c3ccccc23)C(=O)NCCCC(=O)O1
Species: mouse, S. aureus infection
Route: subcutaneous
Endpoint: survival
5 mg/kg, day 1: 40%
10 mg/kg, day 5: 100%
5 mg/kg, day 0: 100%
10 mg/kg, day 1: 100%
30 mg/kg, day 0: 100%

Other studies, line by line
CCOC(=O)/C=C/CN(CCCCN1c2ccccc2CCc2ccc(Cl)cc21)Cc1ccccc1.O=C(O)/C=C\C(=O)O
IC50 (E3 ubiquitin-protein ligase NEDD4, HECT domain (Homo sapiens, UniProt P46934); ubiquitination, inhibitor, TR-FRET; HECT domain): inactive

Repeated from above (study 4):
10 mg/kg, day 5: 100%
5 mg/kg, day 0: 100%
